# Assay results pooled from the literature.
# “And” joins repeats or separate records; there may be more than shown. ± marks the error that the study gave.
SMILES,assay,system,setting,scale,endpoint,value
CC[C@H](C)[C@H](NC(=O)[C@H](CCCCN)NC(=O)CNC(=O)[C@H](CC(C)C)NC(=O)[C@H](Cc1ccccc1)NC(=O)[C@H](CCCCN)NC(=O)[C@H](CO)NC(=O)[C@H](Cc1ccccc1)NC(=O)[C@H](Cc1c[nH]c2ccccc12)NC(=O)[C@H](CCC(N)=O)NC(=O)[C@@H](NC(=O)[C@H](Cc1ccccc1)NC(=O)CCCCCNC(=O)CN1CCN(CC(=O)O)CCN(CC(=O)O)CCN(CC(=O)O)CC1)C(C)C)C(=O)N[C@@H](CCC(=O)O)C(=O)N1CCC[C@H]1C(=O)N[C@@H](CC(=O)O)C(=O)N[C@H](C(=O)N[C@@H](CO)C(=O)N[C@@H](CCC(N)=O)C(=O)N[C@H](C(=O)N[C@@H](CCC(N)=O)C(=O)N[C@@H](CC(=O)O)C(=O)N1CCC[C@H]1C(=O)N[C@@H](CC(N)=O)C(=O)N[C@@H](CC(=O)O)C(=O)N[C@@H](CCC(N)=O)C(=O)N[C@@H](Cc1ccc(O)cc1)C(=O)N[C@@H](CCC(=O)O)C(=O)N1CCC[C@H]1C(=O)N[C@@H](Cc1ccccc1)C(=O)O)C(C)C)C(C)C [copper-64 labelled],dynamic PET,"mouse, CT26 tumour, checkpoint inhibitor-treated, tumour","intravenous, 100 µCi/mouse, 2580 s",,SUVmean,4.91 SUV
CC(=O)NCC(=O)N[C@@H](Cc1ccc(O)cc1)C(=O)NCC(=O)N[C@@H](CO)C(=O)N[C@@H](CO)C(=O)N[C@@H](CO)C(=O)N[C@@H](CCCNC(=N)N)C(=O)N[C@@H](CCCNC(=N)N)C(=O)N[C@@H](C)C(=O)N1CCC[C@H]1C(=O)N[C@@H](CCC(N)=O)C(=O)N[C@H](C(=O)O)[C@@H](C)O,,mouse skin,24 h,,skin permeation,< 1%
CCCCCCCCCCCCCCCC(=O)N[C@@H](CCC(=O)NCCOCCOCCC(=O)NCCOCCOCCC(=O)NCCCC[C@H](NC(=O)[C@H](CC(=O)O)NC(=O)[C@H](CC(C)C)NC(=O)[C@H](Cc1ccc(O)cc1)NC(=O)[C@H](CCCCN)NC(=O)[C@H](CO)NC(=O)[C@H](Cc1ccc(O)cc1)NC(=O)[C@H](CC(=O)O)NC(=O)[C@H](CO)NC(=O)[C@@H](NC(=O)[C@H](Cc1ccccc1)NC(=O)[C@@H](NC(=O)CNC(=O)[C@H](CCC(N)=O)NC(=O)[C@@H](CO)NC(=O)[C@@H](N)Cc1c[nH]cn1)[C@@H](C)O)[C@@H](C)O)C(=O)N[C@@H](CCCNC(=N)N)C(=O)N[C@@H](CCCNC(=N)N)C(=O)N[C@@H](C)C(=O)N[C@@H](CCC(N)=O)C(=O)N[C@@H](CC(=O)O)C(=O)N[C@@H](Cc1ccccc1)C(=O)N[C@H](C(=O)N[C@@H](CCC(N)=O)C(=O)N[C@@H](Cc1c[nH]c2ccccc12)C(=O)N[C@@H](CC(C)C)C(=O)N[C@@H](CC(C)C)C(=O)N[C@@H](CC(N)=O)C(=O)N[C@H](C(=O)NCC(=O)NCC(=O)N1CCC[C@H]1C(=O)N[C@@H](CO)C(=O)N[C@@H](CO)C(=O)NCC(=O)N[C@@H](C)C(=O)N1CCC[C@H]1C(=O)N1CCC[C@H]1C(=O)N1CCC[C@H]1C(=O)N[C@@H](CO)C(N)=O)[C@@H](C)O)C(C)C)C(=O)O,,"rhesus monkey, male, plasma","subcutaneous, 20 µg/kg, day 28, toxicokinetics, median",,Tmax,1 h
C[C@@H]1COCCN1c1nc(NCc2cccnc2C(F)(F)F)c2cccnc2n1,metabolic stability,"monkey, hepatocytes",,,hepatocyte CLint,6.9 µL/min/10⁶ cells
CC(C)[C@@H]1NC(=O)CNC(=O)[C@H](CC(N)=O)NC(=O)[C@H](CCCNC(=N)N)NC(=O)[C@H](Cc2ccc(O)cc2)NC(=O)[C@H](C(C)C)NC(=O)[C@@H](NC(=O)[C@@H](NC(=O)[C@H](CC(N)=O)NC(=O)[C@H](Cc2c[nH]c3ccccc23)NC(=O)[C@H](C)NC(=O)[C@H](Cc2ccccc2)NC(=O)CNC(=O)[C@H](CCCCN)NC(=O)[C@H](Cc2ccccc2)NC(=O)[C@H](Cc2ccccc2)NC(=O)[C@H](CCCCN)NC(=O)OCC2c3ccccc3-c3ccccc32)C(C)C)CSSC[C@@H](C(=O)N[C@@H](Cc2c[nH]cn2)C(=O)N[C@@H](CCCNC(=N)N)C(=O)N[C@@H](CCCNC(=N)N)C(=O)N[C@@H](C)C(=O)N[C@@H](CC(N)=O)C(N)=O)NC(=O)[C@H](C(C)C)NC(=O)[C@H](CCCNC(=N)N)NC1=O,,"ICR mouse, blood","intramammary, 5 mg/kg, day 5, 3 d dosing",,glucose,1.63 ± 0.07 mmol/L
CC(CCC(=O)NCC(=O)O)C1CCC2C3CCC4CC(OC5OC(C(=O)O)C(O)C(O)C5O)CCC4(C)C3CC(O)C12C (stereo not shown),,human men,"dose not given, SLCO1B1 *14/*35",,plasma concentration,109 ng/mL
CCCC[C@H]1C(=O)N(C)[C@@H](CCCC)C(=O)N[C@@H](CCCCNC(=S)Nc2ccc(CN3CCN(CC(=O)O)CCN(CC(=O)O)CC3)cc2)C(=O)N[C@H](C(=O)NCC(N)=O)CSCC(=O)N[C@@H](Cc2ccc(O)cc2)C(=O)N(C)[C@@H](C)C(=O)N[C@@H](CC(N)=O)C(=O)N2CCC[C@H]2C(=O)N[C@@H](Cc2cnc[nH]2)C(=O)N[C@@H](CCC(=O)O)C(=O)N2C[C@H](O)C[C@H]2C(=O)N[C@@H](Cc2c[nH]c3ccccc23)C(=O)N[C@@H](CO)C(=O)N[C@@H](Cc2cn(CC(=O)O)c3ccccc23)C(=O)N1C [fluorine-18 labelled],,"huCD34 mice with A-375 melanoma, tumour","dose not given, 7 days, together with: pembrolizumab 4 mg/kg",baseline: pretreatment baseline,change in tumour uptake,0.47 ± 0.41 %ID/cc
COc1ccc(CNc2ccc3c(c2)S(=O)(=O)C=C3)cc1,,"male C57BL/6 mice, blood","intraperitoneal, 10 mg/kg, day 8, group average",,platelet distribution width,14.7%
O=C1NC2(CC2)COc2ncc(F)cc2[C@H]2COCCN2c2ccn3ncc1c3n2,,"Sprague-Dawley rat, male, serum","oral, 2.5 mg/kg/day, 4 weeks daily, end of treatment",,aspartate aminotransferase activity,99.7 ± 11.1 U/L
CC(C)C[C@H](NC(=O)[C@H](Cc1ccc(O)cc1)NC(=O)[C@H](C)NC(=O)[C@@H](NC(=O)[C@H](CC(C)C)NC(=O)[C@H](C)NC(=O)[C@H](C)NC(=O)[C@H](CCCCN)NC(=O)CNC(=O)[C@@H](NC(=O)[C@H](Cc1c[nH]cn1)NC(=O)[C@H](CCCCN)NC(=O)CNC(=O)[C@@H](NC(=O)[C@H](Cc1c[nH]cn1)NC(=O)[C@@H](NC(=O)[C@H](C)NC(=O)[C@H](CCCCN)NC(=O)[C@H](CCCCN)NC(=O)[C@H](Cc1ccccc1)NC(=O)[C@H](Cc1c[nH]c2ccccc12)NC(=O)[C@H](CCCCN)NC(=O)CNC(=O)[C@H](Cc1c[nH]c2ccccc12)NC(=O)[C@@H](N)CCCNC(=N)N)[C@@H](C)O)C(C)C)C(C)C)[C@@H](C)O)C(N)=O,,"zebrafish embryos 4 hpf, E3 medium",1 h,,acute toxic concentration,5 µM
CSCC[C@H](NC(=O)[C@@H](NC(=O)[C@H](CC(C)C)NC(=O)[C@@H](NC(=O)[C@H](Cc1c[nH]cn1)NC(=O)CCCCCNC(=O)[C@H](CCCNC(=N)N)NC(=O)[C@H](CCCNC(=N)N)NC(=O)[C@H](CCCNC(=N)N)NC(=O)[C@H](CCC(N)=O)NC(=O)[C@H](CCCNC(=N)N)NC(=O)[C@H](CCCNC(=N)N)NC(=O)[C@H](CCCCN)NC(=O)[C@H](CCCCN)NC(=O)[C@H](CCCNC(=N)N)NC(=O)CNC(=O)[C@@H](N)Cc1ccc(O)cc1)C(C)C)C(C)C)C(=O)N[C@@H](CS)C(=O)N[C@@H](C)C(=O)N[C@H](C(N)=O)[C@@H](C)O,,C57BL/6J mice,"Alzet osmotic pump, 3 mg/kg, 8 weeks",baseline: leukocytes,Seg,13% and 17% and 8%
O=C(c1cc(Cc2n[nH]c(=O)c3ccccc23)ccc1F)N1CC(CNC2CC2)C1,,female Wistar Han rat,"oral, 30 mg/kg, day 1",,Cmax,5710 ng/mL
CSCC[C@H](NC(=O)CNC(=O)[C@H](CCCCN)NC(=O)[C@H](CC(C)C)NC(=O)[C@@H]1CCCN1C(=O)[C@H](CO)NC(=O)[C@H](Cc1c[nH]cn1)NC(=O)[C@H](Cc1c[nH]c2ccccc12)NC(=O)[C@H](CCCNC(=N)N)NC(=O)[C@H](CC(C)C)NC(=O)[C@H](CCCNC(=N)N)NC(=O)[C@H](Cc1c[nH]c2ccccc12)NC(=O)[C@H](CS)NC(=O)CCCCCNC(=O)CN1CCN(CC(=O)O)CCN(CC(=O)O)CCN(CC(=O)O)CC1)C(=O)O [copper-64 labelled],,"BALB/c nude mouse, Huh-7 tumour, lymph node","intravenous, 1 h, ex vivo biodistribution",,tissue uptake,2.58 %ID/g

# For quick reference, copied from above:
SMILES,assay,system,setting,scale,endpoint,value
CC[C@H](C)[C@H](NC(=O)[C@H](CCCCN)NC(=O)CNC(=O)[C@H](CC(C)C)NC(=O)[C@H](Cc1ccccc1)NC(=O)[C@H](CCCCN)NC(=O)[C@H](CO)NC(=O)[C@H](Cc1ccccc1)NC(=O)[C@H](Cc1c[nH]c2ccccc12)NC(=O)[C@H](CCC(N)=O)NC(=O)[C@@H](NC(=O)[C@H](Cc1ccccc1)NC(=O)CCCCCNC(=O)CN1CCN(CC(=O)O)CCN(CC(=O)O)CCN(CC(=O)O)CC1)C(C)C)C(=O)N[C@@H](CCC(=O)O)C(=O)N1CCC[C@H]1C(=O)N[C@@H](CC(=O)O)C(=O)N[C@H](C(=O)N[C@@H](CO)C(=O)N[C@@H](CCC(N)=O)C(=O)N[C@H](C(=O)N[C@@H](CCC(N)=O)C(=O)N[C@@H](CC(=O)O)C(=O)N1CCC[C@H]1C(=O)N[C@@H](CC(N)=O)C(=O)N[C@@H](CC(=O)O)C(=O)N[C@@H](CCC(N)=O)C(=O)N[C@@H](Cc1ccc(O)cc1)C(=O)N[C@@H](CCC(=O)O)C(=O)N1CCC[C@H]1C(=O)N[C@@H](Cc1ccccc1)C(=O)O)C(C)C)C(C)C [copper-64 labelled],dynamic PET,"mouse, CT26 tumour, checkpoint inhibitor-treated, tumour","intravenous, 100 µCi/mouse, 2580 s",,SUVmean,4.91 SUV
CC(C)C[C@H](NC(=O)[C@H](Cc1ccc(O)cc1)NC(=O)[C@H](C)NC(=O)[C@@H](NC(=O)[C@H](CC(C)C)NC(=O)[C@H](C)NC(=O)[C@H](C)NC(=O)[C@H](CCCCN)NC(=O)CNC(=O)[C@@H](NC(=O)[C@H](Cc1c[nH]cn1)NC(=O)[C@H](CCCCN)NC(=O)CNC(=O)[C@@H](NC(=O)[C@H](Cc1c[nH]cn1)NC(=O)[C@@H](NC(=O)[C@H](C)NC(=O)[C@H](CCCCN)NC(=O)[C@H](CCCCN)NC(=O)[C@H](Cc1ccccc1)NC(=O)[C@H](Cc1c[nH]c2ccccc12)NC(=O)[C@H](CCCCN)NC(=O)CNC(=O)[C@H](Cc1c[nH]c2ccccc12)NC(=O)[C@@H](N)CCCNC(=N)N)[C@@H](C)O)C(C)C)C(C)C)[C@@H](C)O)C(N)=O,,"zebrafish embryos 4 hpf, E3 medium",1 h,,acute toxic concentration,5 µM
